{"data": "Measured values gathered from unrelated publications", "note": "Numbered parts are unrelated; each lists some results of a single study.", "sequence of UniProt P23458 (whole entry, looked up)": "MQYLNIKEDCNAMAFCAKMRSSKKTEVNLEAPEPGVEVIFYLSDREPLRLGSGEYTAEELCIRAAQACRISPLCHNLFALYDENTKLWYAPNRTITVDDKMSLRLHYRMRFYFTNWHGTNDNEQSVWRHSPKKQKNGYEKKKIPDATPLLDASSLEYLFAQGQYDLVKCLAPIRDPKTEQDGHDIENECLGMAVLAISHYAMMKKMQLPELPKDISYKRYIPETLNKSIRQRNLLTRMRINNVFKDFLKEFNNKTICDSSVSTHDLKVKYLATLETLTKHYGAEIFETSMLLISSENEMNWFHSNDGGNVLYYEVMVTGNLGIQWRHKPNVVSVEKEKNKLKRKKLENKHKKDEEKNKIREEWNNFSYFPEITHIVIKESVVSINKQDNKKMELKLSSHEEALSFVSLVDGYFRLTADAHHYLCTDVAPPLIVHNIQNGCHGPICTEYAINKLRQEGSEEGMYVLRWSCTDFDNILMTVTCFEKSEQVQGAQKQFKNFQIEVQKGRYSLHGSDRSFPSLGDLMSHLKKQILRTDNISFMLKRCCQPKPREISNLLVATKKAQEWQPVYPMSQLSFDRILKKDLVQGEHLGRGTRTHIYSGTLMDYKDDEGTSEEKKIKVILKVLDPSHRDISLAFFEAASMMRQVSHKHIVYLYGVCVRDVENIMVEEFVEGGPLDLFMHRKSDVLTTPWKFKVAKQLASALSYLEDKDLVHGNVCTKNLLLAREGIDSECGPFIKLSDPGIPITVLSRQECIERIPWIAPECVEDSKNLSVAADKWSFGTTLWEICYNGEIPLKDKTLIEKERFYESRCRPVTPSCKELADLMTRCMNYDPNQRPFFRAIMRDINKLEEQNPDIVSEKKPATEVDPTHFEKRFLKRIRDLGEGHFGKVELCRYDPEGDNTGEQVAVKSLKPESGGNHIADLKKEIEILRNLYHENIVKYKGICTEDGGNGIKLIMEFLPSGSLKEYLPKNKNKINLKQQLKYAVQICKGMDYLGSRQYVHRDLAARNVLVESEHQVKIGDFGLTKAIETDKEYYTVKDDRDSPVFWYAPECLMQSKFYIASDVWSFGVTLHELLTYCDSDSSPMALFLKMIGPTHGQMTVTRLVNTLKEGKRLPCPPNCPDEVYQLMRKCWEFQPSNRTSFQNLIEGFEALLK"}
{"data": "Series 1", "target": "Calcium/calmodulin-dependent protein kinase type II subunit alpha (CAMK2A, Homo sapiens, UniProt Q9UQM7)", "observed": "enzyme activity", "action": "inhibitor", "tested at": "10 µM", "sequence of UniProt Q9UQM7 (whole entry, looked up)": "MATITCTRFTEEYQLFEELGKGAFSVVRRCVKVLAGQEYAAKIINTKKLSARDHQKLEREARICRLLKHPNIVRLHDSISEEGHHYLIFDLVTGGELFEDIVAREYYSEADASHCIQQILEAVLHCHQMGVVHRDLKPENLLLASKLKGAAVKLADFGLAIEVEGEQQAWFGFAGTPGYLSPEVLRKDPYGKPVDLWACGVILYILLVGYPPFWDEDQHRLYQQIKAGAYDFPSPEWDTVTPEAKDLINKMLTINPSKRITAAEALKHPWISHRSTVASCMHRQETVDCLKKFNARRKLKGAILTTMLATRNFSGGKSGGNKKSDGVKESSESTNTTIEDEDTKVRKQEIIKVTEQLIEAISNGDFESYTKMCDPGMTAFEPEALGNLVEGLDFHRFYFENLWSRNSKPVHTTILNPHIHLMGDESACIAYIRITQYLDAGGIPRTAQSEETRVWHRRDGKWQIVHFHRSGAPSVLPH"}
{"Compound": "O=c1[nH]c(=O)c2nc[nH]c2[nH]1", "inhibition [%]": -9}
{"Compound": "Clc1ccc(C(c2ccccc2Cl)C(Cl)Cl)cc1 (stereo not shown)", "inhibition [%]": -2}
{"Compound": "OC[C@H]1O[C@@H](O[C@H]2[C@H](O)[C@@H](O)C(O)O[C@@H]2CO)[C@H](O)[C@@H](O)[C@H]1O (stereo partly shown)", "inhibition [%]": -8}
{"Compound": "CN[C@H](CC(C)C)C(=O)N[C@H]1C(=O)N[C@@H](CC(N)=O)C(=O)N[C@H]2C(=O)N[C@H]3C(=O)N[C@H](C(=O)N[C@H](C(=O)O)c4cc(O)cc(O)c4-c4cc3ccc4O)[C@H](O[C@H]3C[C@](C)(N)[C@@H](O)[C@H](C)O3)c3ccc(c(Cl)c3)Oc3cc2cc(c3O[C@@H]2O[C@H](CO)[C@@H](O)[C@H](O)[C@H]2O[C@H]2C[C@](C)(NCc3ccc(-c4ccc(Cl)cc4)cc3)[C@@H](O)[C@H](C)O2)Oc2ccc(cc2Cl)[C@H]1O", "inhibition [%]": -1}
{"Compound": "CC(C)(O[C@@H]1O[C@H](CO)[C@@H](O)[C@H](O)[C@H]1O)[C@H]1Oc2cc3oc(=O)ccc3cc2[C@H]1O", "inhibition [%]": -6}
{"Compound": "CC(C)(O)CC(=O)O", "inhibition [%]": -19}
{"Compound": "CC(C)=CCC/C(C)=C/C=O", "inhibition [%]": 0}
{"Compound": "CC(=O)O[C@H]1CC/C(C)=C/CC/C(C)=C/C[C@]2(C(C)C)CC[C@@]1(C)O2", "inhibition [%]": -2}
{"data": "Series 2", "cell line": "A-375", "tested at": "100 µM", "time": "36 h"}
{"SMILES": "CC1(C)NC(=O)N(c2ccc([N+](=O)[O-])c(C(F)(F)F)c2)C1=O", "viability [%]": 77.8}
{"SMILES": "Nc1ccc(S(=O)(=O)Nc2ccc(Cl)nn2)cc1", "viability [%]": 87.9}
{"SMILES": "CC(=O)N[C@@H](CCC(N)=O)C(=O)O", "viability [%]": 110}
{"SMILES": "Cc1c(Cl)cccc1Nc1ccccc1C(=O)O", "viability [%]": 92.5}
{"SMILES": "CC1=C(/C=C/C(C)=C/C=C/C(C)=C\\C(=O)O)C(C)(C)CCC1", "viability [%]": 43.8}
{"SMILES": "CCCc1cc(C(N)=S)ccn1", "viability [%]": 104}
{"SMILES": "O=C(/C=C/c1cccc(S(=O)(=O)Nc2ccccc2)c1)NO", "viability [%]": 12.1}
{"SMILES": "CCOC(=O)C1=C(COCCN)NC(C)=C(C(=O)OC)[C@@H]1c1ccccc1Cl", "viability [%]": 0.405}
{"data": "Series 3", "organism": "Sarcocystis neurona", "observed": "parasite growth", "tested at": "10 µM", "setting": "secondary screen"}
{"Structure (SMILES)": "COC(=O)Nc1nc2cc(C(=O)c3ccc(F)cc3)ccc2[nH]1", "inhibition": "7.4%"}
{"Structure (SMILES)": "CC(=O)[C@]1(O)Cc2c(O)c3c(c(O)c2[C@@H](O[C@H]2C[C@H](N)[C@H](O)[C@H](C)O2)C1)C(=O)c1ccccc1C3=O", "inhibition": "98.7%"}
{"Structure (SMILES)": "CCC[C@@H]1C[C@@H](C(=O)N[C@@H]([C@H]2O[C@H](SC)[C@H](O)[C@@H](O)[C@H]2O)[C@@H](C)O)N(C)C1", "inhibition": "5.6%"}
{"Structure (SMILES)": "CN1CCN(c2c(F)cc3c(=O)c(C(=O)O)cn4c3c2SCC4)CC1.Cl", "inhibition": "-24.7%"}
{"Structure (SMILES)": "C[C@@H]1CN(CCCn2c3ccccc3c3ccccc32)C[C@H](C)N1", "inhibition": "0.249%"}
{"Structure (SMILES)": "COC(=O)C1=C(C)NC(C)=C(C(=O)OC(C)C)C1c1cccc2nonc12 (stereo not shown)", "inhibition": "-68.5%"}
{"Structure (SMILES)": "Cl.NC[C@H](O)c1ccc(O)c(O)c1", "inhibition": "-36.4%"}
{"Structure (SMILES)": "CC(C)n1c(/C=C/C(O)CC(O)CC(=O)O)c(-c2ccc(F)cc2)c2ccccc21 (stereo not shown)", "inhibition": "-40.5%"}
{"data": "Mixed results"}
{"SMILES": "Cn1cncc1[C@@](O)(COc1ccc(C#N)cc1-c1ccc(OC(F)(F)F)cc1)c1ccc(C#N)cc1", "target": "Tyrosine-protein kinase JAK1, JH2 (JAK1, Homo sapiens, UniProt P23458)", "observed": "cell-free assay", "technique": "competition with immobilised ligand", "tested at": "1 µM", "endpoint": "remaining binding", "result": "92%"}
